Measurements collected from several papers.
Compare with care: the assays were run in different laboratories. “And” joins repeats or separate records; there may be more than shown. ± gives the spread as reported. Converted amounts (≈) assume the structure as drawn.

O=C(NS(=O)(=O)c1cccs1)c1cc2ccccc2n1Cc1ccc(Br)c2ccccc12
body weight (KM mouse, chronic hyperuricaemia model; dose not given, day 24): 38.5 g and 37.4 g and 34 g and 37.5 g and 40.2 g and 36.6 g

CN1CCC[C@]1(C)/C=C/S(=O)(=O)NC(=O)Nc1c2c(cc3c1CCC3)CC=C2
AUC(0-24) accumulation ratio (human, plasma; oral, 12.5 mg twice daily of parent drug, metabolite of dosed drug; relative to: day 14 over day 1): 1.7

CN(CCNCc1ccncc1O)CCNCc1ccncc1O
protonation constant logK2H (potentiometric titration; aqueous KCl solution; 1 mM, 25 °C, 0.1 M KCl): 8.7

C=CC(=O)Nc1cc(Nc2nccc(-c3cn(C)c4ccccc34)n2)c(OC)cc1N(C)CCNC
remaining compound (human, dried blood spots; 10 d, -80 °C, high QC level): 102%

CC[C@H](C)[C@@H]1NC(=O)[C@H](Cc2ccc(O)cc2)NC(=O)CCCSC[C@@H](C(=O)N(CC(=O)N[C@@H](CC(C)C)C(=O)NCC(N)=O)Cc2ccc(F)cc2)NC(=O)[C@H](CC(N)=O)NC(=O)[C@H](CCC(N)=O)NC1=O
treatment-emergent adverse events (human; intranasal and intravenous, 400 µg intranasal and 20 µg intravenous): 50%

[2H]C([2H])([18F])Oc1cc(C(=O)OCC2CCN(CCCC)CC2)ccc1N
peak uptake (PET; rhesus monkey, striatum): 4 to 7 SUV

Cc1nn(-c2nc3c(F)cc(F)cc3s2)c(O)c1C(c1ccc(C(F)(F)F)cc1)c1c(C)nn(-c2nc3c(F)cc(F)cc3s2)c1O
terminal volume of distribution (Vz, observed) (ICR mouse, plasma; intravenous, 5 mg/kg): 0.794 L/kg and 0.651 L/kg and 1.62 L/kg

N[C@@H](CC(=O)O)C(=O)OC(C(=O)O)c1ccc(Br)cc1[N+](=O)[O-] (mixture of isomers)
hydrolysis half-life, B isomer (1H NMR, dark; 50 mM sodium phosphate; concentration not given, pH 9.0, room temperature, 12.5% DMSO-d6): 28 ± 2 h

CC(C)(O)c1ncc([S@](N)(=O)=NC(=O)Nc2c3c(cc4c2CCC4)CCC3)s1
subjects with TEAEs (refers to: reproductive, breast disorders; healthy human; oral, 200 mg, 14 days, SDD formulation, once daily): 14%

C/C(N)=N/C(=N\S(=O)(=O)c1ccc(C(F)(F)F)cc1)N1C[C@H](c2ccccc2)C(c2ccc(Cl)cc2)=N1
Tmax (male C57BL/6 mouse, plasma; oral, 10 mg/kg): 1.5 h

C=C(NC(=O)c1csc(-c2nc3c(cc2O)-c2nc(cs2)C(=O)NC(C(C)O)C(=O)NC(=C(C)OC)c2nc(cs2)C(=O)NC2c4nc(cs4)C(=O)NC(COC(=O)c4c5c6c(cccc6n4O)COC(=O)C(OC4CC(C)(O)C(N(C)C)C(C)O4)C2OC5)c2nc-3cs2)n1)C(N)=O (stereo not drawn)
AUC(0-inf) (ICR mice, Streptococcus pneumoniae ATCC 49169 infected, immunocompromised, blood; intravenous, 2 mg/kg/day three times daily): 0.191 µg·h/mL

O=C(Nc1cnccc1-c1ccc([18F])nc1)c1ccnc(NC(=O)C2CC2)c1
SUV (FVB/NJ mice, both sexes, brain; intravenous, 20 min, median, P-gp inhibitor pretreatment, together with: tariquidar 15 mg/kg iv): 0.203

O=C([O-])CN1CCN(CC(=O)[O-])CCN(CC(CCCc2ccccc2[N+](=O)[O-])N(CC(=O)[O-])CC(=O)[O-])CC1.[177Lu+3] (stereo not drawn)
intact radiolabelled complex (HPLC; human serum; 37 h, pH 7, 37 °C): 100%

CCN(CC)c1ccc2c(c1)O[B-]1(c3ccccc3C#N)OC(=O)C(c3ccccc3)=N[N+]1=C2CC(C)C (stereo not drawn)
hydrolysis activation energy (UV/vis decay; aqueous buffer): 24.9 kcal/mol

COc1ccc2c(c1)CCn1c[n+]3c(c1-2)-c1ccc(OC)cc1CC3
mean corpuscular haemoglobin (female NSG mice, blood; 6 mg/kg, day 7, 5 days per week): 15.8 ± 0.42 pg

COC(=O)[C@@]1(C(C)C)C=C(C(=O)Nc2cccc(C(=O)Nc3ccc(Nc4nccc(-c5cccnc5)n4)c(C)c3)c2)C(=O)CC1
compound remaining (rat, plasma; 1 µM, 15 min): 100% and 93.5%

CCCCN1C(=O)c2cccc3c(NCCCCCN4CCOCC4)ccc(c23)C1=O
fluorescence lifetime (ethylene glycol): 8.1 ns

CN1CCC[C@]1(C)/C=C/S(=O)(=O)NC(=O)Nc1c2c(cc3c1CCC3O)CCC2 (stereo partly drawn)
AUC(0-24) (human, plasma; oral, 50 mg twice daily of parent drug, day 14, metabolite of dosed drug): 676 µg·h/mL

CCCCN1C(=O)c2cccc3c(NCCCCCCCCN4CCOCC4)ccc(c23)C1=O
fluorescence quantum yield (methanol): 0.75

CCCC[C@H]1C(=O)N(C)[C@@H](CCCC)C(=O)N[C@@H](CCCCNC(=S)Nc2ccc(CN3CCN(CC(=O)O)CCN(CC(=O)O)CC3)cc2)C(=O)N[C@H](C(=O)NCC(N)=O)CSCC(=O)N[C@@H](Cc2ccc(O)cc2)C(=O)N(C)[C@@H](C)C(=O)N[C@@H](CC(N)=O)C(=O)N2CCC[C@H]2C(=O)N[C@@H](Cc2cnc[nH]2)C(=O)N[C@@H](CCC(=O)O)C(=O)N2C[C@H](O)C[C@H]2C(=O)N[C@@H](Cc2c[nH]c3ccccc23)C(=O)N[C@@H](CO)C(=O)N[C@@H](Cc2cn(CC(=O)O)c3ccccc23)C(=O)N1C [fluorine-18 labelled]
SUV (PET, refers to: PD-L1; huCD34 mouse A-375 xenograft, tumour core within 3 mm; anti-PD-1 monotherapy): 1.92 ± 0.3 SUV

CN1CCC[C@]1(C)/C=C/S(=O)(=O)NC(=O)Nc1c2c(cc3c1CC(O)C3)CCC2 (stereo partly drawn)
AUC(0-24) accumulation ratio (human, plasma; oral, 100 mg twice daily of parent drug, metabolite of dosed drug; relative to: day 14 over day 1): 1.3

Cc1cc(-c2ccc(C(=O)[C@@H]3CCCC[C@H]3C(=O)Nc3cnn4c3C(=O)NCC4)cc2)[nH]n1
cumulative radioactivity recovery (human, faeces; oral, 200 mg, 0-96 h; relative to: dose): 84.3% and 79.8% and 75.4% and 71.4% and 52.5%

C=CC(=O)Oc1ccc(OC)c(-c2c[nH]c3ncc(-c4cncc(C(=O)N(C)C)c4)cc23)c1
hydrolytic half-life (HPLC; 50 µM, 37 °C, no lysine, followed to 24 h): > 24 h

CN(C)C(=O)c1cccc(N2Cc3cn(Cc4ccc(F)cc4Cl)nc3C2)c1
half-life (metabolic stability; human, liver microsomes): 0.6 h

CN1CCC[C@]1(C)/C=C/S(=O)(=O)NC(=O)Nc1c2c(cc3c1C(O)CC3)CCC2 (stereo partly drawn)
AUC(0-24) (human, plasma; oral, 50 mg twice daily of parent drug, day 14, metabolite of dosed drug): 208 µg·h/mL

CCc1cnc(NC(=O)c2cc(S(=O)(=O)N3CCOCC3)ccc2N(C)C2CCCC2)s1
Eosinophils differential count (mouse, blood; 10 mg/kg, 3 doses): 2.3%

Cc1noc(C)c1Cn1cc(N2C(=O)CN(Cc3cccc(OS(=O)(=O)O)c3)C2=O)cn1
plasma concentration (rat Sprague-Dawley male, plasma; oral, 100 mg/kg of parent drug, 4 h): 334 ± 90.5 ng/mL

COc1ccc2c(c1)O[B-]1(c3ccccc3)OC(=O)C(c3ccccc3)=N[N+]1=C2C (stereo not drawn)
hydrolysis activation energy (UV/vis decay; aqueous buffer): 21.5 kcal/mol

C[C@]12C[C@H](c3ccc(S(C)(=O)=O)cc3)C3=C4CCC(=O)C=C4CC[C@H]3[C@@H]1CC[C@@]2(O)C(F)(F)C(F)(F)F
plasma concentration (refers to: compound (parent); healthy human volunteers, pooled plasma; oral, 5 mg daily, day 28, 168 h): 1.52 ng/mL

C[N+](C)(CCOCCOCCOCCNC(=S)Nc1ccc(C[C@H]2CN(CC(=O)[O-])CCN(CC(=O)[O-])CCN2CC(=O)[O-])cc1)C[c-]1cccc1.[64Cu+2].[Fe+2].c1cc[cH-]c1
absorbed dose (OLINDA, extrapolated from mouse biodistribution, refers to: right colon; adult male human phantom): 1.12 µSv/MBq

CC(=O)N([O-])CCCCCNC(=O)CCC(=O)N([O-])CCCCCNC(=O)CCC(=O)N([O-])CCCCCN.[89Zr+4]
intact complex (radio-TLC; aqueous buffer; 3 d, pH 7.2, 37 °C, 89Zr-labelled complex, together with: FeCl3 10-fold excess): 88.2 ± 3.5%

Cc1nc(N)nc2c1C(=O)N[C@@H](c1ccc(F)cc1-c1cccc(O[11CH3])n1)C2
SUV (ex vivo biodistribution; mice, U87 subcutaneous xenograft, muscle; 60 min post-injection, baseline, vehicle pre-treatment): 0.5 ± 0.01

[123I]c1ccc2nc(-c3ccc(-n4ccnn4)nc3)cn2c1
tracer uptake (male Wistar rat, muscle; intravenous, 4 MBq, 5 min): 0.471 %ID/g

CN1C(=O)[C@@H](Cc2ccc(O)c(I)c2)NC(=O)CNC(=O)[C@H](Cc2ccc3ccccc3c2)NC(=O)[C@H](CCCNC(=N)N)NC(=O)[C@H]1CCCNC(=O)c1ccc(CNC(=O)CN2CCN(CC(=O)O)CCN(CC(=O)O)CCN(CC(=O)O)CC2)cc1 [lutetium-177 labelled]
absorbed dose coefficient (extrapolation method 1, OLINDA/EXM, refers to: 177Lu radioactivity; human, extrapolated from mice, stomach wall): 0.011 mGy/MBq

O=S1(=O)CC2CCCCC2CS1 (stereo not drawn)
solubility (phase solubility, NMR; water; 25 °C, together with: hydroxypropyl-β-cyclodextrin 209 mM): 25.3 mM (≈ 5220 µg/mL)

O=C(Nc1cnccc1-c1ccc([18F])cc1)c1ccnc(NC(=O)C2CC2)c1
SUV (FVB/NJ mice (both sexes), feces; intravenous, dose not given, 120 min, together with: tariquidar 15 mg/kg i.v. pre-dose): 6.04

CC[C@H](C)/C=C/C=C/C=C/C(O)=C/C(=O)C(F)(F)F
ketone fraction at equilibrium (UPLC-MS; PBS; ketone-hydrate equilibrium): 55%

O=C([O-])CN1CCN(CC(=O)[O-])CCN(C(CO)C(O)CO)CCN(CC(=O)[O-])CC1.[Dy+3] (stereo not drawn)
lanthanide concentration (cynomolgus monkey, kidney medulla; dose not given, day 58): 2.1 ± 0.61 nmol/g

COc1ccc(C([O-])=CC(=O)c2ccc(C(C)(C)C)cc2)cc1.[Ru+2].c1ccc(-c2cccc(-c3ccccn3)n2)nc1.c1cnccn1
photosubstitution quantum yield (water; together with: 470 nm light): 0.0025%
